Published values collected from several papers.
Parts stem from different laboratories: compare values within a part only.
UniProt Q00537, sequence (whole entry, looked up): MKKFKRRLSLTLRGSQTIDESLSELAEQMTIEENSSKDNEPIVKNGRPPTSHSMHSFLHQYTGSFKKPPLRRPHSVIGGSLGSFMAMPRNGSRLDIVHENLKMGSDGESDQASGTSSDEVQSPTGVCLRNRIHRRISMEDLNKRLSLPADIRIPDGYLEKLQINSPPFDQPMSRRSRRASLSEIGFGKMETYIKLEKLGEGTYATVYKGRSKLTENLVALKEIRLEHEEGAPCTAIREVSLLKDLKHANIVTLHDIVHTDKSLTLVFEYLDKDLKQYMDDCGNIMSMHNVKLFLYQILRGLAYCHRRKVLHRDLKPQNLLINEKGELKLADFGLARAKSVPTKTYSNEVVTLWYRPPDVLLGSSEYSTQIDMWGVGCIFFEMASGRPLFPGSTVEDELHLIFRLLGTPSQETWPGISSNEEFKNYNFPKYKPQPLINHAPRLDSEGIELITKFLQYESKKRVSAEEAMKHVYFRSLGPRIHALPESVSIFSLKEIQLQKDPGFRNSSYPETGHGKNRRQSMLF
UniProt Q9H4B4, sequence (whole entry, looked up): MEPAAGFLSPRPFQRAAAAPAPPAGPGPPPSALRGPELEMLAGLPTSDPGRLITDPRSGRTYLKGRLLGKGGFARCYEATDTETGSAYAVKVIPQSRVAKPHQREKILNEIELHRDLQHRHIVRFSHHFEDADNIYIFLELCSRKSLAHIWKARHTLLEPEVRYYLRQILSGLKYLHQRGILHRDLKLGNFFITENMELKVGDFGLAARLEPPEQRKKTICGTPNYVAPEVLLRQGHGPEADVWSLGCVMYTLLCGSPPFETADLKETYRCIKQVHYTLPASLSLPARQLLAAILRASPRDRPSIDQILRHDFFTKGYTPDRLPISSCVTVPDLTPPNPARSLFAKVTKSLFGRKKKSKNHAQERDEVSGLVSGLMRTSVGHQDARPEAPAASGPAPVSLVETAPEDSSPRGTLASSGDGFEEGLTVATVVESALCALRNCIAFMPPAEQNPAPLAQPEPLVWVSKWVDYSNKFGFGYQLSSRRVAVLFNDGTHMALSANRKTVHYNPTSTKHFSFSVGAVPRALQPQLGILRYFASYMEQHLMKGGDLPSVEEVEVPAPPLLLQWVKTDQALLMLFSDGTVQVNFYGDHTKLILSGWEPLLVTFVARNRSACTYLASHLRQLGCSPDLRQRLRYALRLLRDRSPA
UniProt P54764, sequence (whole entry, looked up): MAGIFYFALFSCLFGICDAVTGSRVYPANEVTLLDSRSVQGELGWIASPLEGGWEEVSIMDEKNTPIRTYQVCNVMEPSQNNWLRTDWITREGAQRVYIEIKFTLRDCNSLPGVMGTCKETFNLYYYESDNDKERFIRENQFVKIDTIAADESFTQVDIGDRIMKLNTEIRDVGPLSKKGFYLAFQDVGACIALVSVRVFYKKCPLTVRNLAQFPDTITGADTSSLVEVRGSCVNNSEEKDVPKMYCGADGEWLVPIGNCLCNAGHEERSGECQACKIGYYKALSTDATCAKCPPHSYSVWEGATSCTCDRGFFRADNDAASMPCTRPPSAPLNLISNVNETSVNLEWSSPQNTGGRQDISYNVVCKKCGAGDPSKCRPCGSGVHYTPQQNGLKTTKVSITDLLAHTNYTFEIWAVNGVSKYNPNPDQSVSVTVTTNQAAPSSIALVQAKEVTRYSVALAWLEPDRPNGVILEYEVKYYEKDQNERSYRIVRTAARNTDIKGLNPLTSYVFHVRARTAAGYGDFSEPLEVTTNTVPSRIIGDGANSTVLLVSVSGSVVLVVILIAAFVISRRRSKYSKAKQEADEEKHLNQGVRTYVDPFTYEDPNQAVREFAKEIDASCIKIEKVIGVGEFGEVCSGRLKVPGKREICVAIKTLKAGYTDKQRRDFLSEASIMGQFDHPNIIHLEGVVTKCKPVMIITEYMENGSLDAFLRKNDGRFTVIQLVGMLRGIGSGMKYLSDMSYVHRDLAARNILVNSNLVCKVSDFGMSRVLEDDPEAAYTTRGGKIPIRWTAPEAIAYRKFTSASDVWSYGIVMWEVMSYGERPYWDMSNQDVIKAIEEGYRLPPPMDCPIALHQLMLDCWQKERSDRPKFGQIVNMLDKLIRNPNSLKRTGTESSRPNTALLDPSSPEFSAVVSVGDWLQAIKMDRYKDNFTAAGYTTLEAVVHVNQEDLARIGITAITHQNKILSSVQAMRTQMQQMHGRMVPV
UniProt Q9UEE5, sequence (whole entry, looked up): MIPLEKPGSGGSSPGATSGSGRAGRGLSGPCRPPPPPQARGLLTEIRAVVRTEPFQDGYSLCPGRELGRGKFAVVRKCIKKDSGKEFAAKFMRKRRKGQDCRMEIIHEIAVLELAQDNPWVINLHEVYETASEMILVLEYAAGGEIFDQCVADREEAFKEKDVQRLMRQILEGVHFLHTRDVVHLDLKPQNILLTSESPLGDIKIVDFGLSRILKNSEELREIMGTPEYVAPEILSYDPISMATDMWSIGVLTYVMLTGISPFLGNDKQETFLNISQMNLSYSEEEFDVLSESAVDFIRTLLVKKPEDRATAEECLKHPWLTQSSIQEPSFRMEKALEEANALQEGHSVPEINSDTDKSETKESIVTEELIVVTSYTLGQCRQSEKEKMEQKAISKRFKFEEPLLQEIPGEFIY
UniProt Q9HBY8, sequence (whole entry, looked up): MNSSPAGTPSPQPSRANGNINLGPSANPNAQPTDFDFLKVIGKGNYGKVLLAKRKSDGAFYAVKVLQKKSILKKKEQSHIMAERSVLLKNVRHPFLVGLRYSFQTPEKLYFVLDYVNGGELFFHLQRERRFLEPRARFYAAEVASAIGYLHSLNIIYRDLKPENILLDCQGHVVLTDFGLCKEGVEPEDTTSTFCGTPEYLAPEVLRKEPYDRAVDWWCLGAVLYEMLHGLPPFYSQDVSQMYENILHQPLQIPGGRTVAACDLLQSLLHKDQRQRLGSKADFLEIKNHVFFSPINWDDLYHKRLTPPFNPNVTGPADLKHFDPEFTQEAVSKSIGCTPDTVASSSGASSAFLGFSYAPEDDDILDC
UniProt Q92630, sequence (whole entry, looked up): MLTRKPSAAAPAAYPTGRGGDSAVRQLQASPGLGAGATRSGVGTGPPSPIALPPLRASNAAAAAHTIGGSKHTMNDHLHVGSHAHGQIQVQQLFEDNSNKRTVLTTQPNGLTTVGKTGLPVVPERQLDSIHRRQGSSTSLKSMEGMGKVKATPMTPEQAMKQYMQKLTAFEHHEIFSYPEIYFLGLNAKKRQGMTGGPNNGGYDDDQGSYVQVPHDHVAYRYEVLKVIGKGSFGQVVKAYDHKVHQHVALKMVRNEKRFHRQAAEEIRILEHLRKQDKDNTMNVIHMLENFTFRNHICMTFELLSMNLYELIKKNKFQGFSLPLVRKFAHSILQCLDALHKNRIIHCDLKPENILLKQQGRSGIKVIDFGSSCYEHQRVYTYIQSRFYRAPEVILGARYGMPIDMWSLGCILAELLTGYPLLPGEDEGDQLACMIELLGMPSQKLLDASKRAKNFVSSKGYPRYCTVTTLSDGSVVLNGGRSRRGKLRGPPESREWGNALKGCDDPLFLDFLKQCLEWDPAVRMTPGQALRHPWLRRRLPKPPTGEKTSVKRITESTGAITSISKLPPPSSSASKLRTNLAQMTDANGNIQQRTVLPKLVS

Block 1
Structure (SMILES): O=C(O)/C=C/c1cc(Br)c(Br)c(Br)c1Br
Observed: enzyme activity
Mode: inhibitor
Concentration: 0.5 µM
Reference: control
target	remaining activity [%]
Cyclin-dependent kinase 4, with cyclin D3 (CDK4, Homo sapiens, UniProt P11802)	97.9
3-phosphoinositide-dependent protein kinase 1 (PDPK1, Homo sapiens, UniProt O15530)	96.2
Ribosomal protein S6 kinase alpha-6 (RPS6KA6, Homo sapiens, UniProt Q9UK32)	86.9
Ephrin type-B receptor 1 (EPHB1, Homo sapiens, UniProt P54762)	95.2
Cyclin-dependent kinase 1, with cyclin B (CDK1, Homo sapiens, UniProt P06493)	62.7
Serine/threonine-protein kinase 17A (STK17A, Homo sapiens, UniProt Q9UEE5)	84.6
Ribosomal protein S6 kinase alpha-5 (RPS6KA5, Homo sapiens, UniProt O75582)	88.3
Serine/threonine-protein kinase 16 (STK16, Homo sapiens, UniProt O75716)	90.3
Ephrin type-A receptor 4 (EPHA4, Homo sapiens, UniProt P54764)	88.8
Mitogen-activated protein kinase kinase kinase kinase 4 (MAP4K4, Homo sapiens, UniProt O95819)	63.5

Block 2
SMILES: CO[C@@H](C)c1c(Nc2ccc([C@@H](N(C)C(=O)C3CCS(=O)(=O)CC3)C(F)(F)F)cc2)cnc2cc(Cl)nn12
Technique: competition with immobilised ligand
Concentration: 1 µM
target	observed	remaining binding
STE20/SPS1-related proline-alanine-rich protein kinase (STK39, Homo sapiens, UniProt Q9UEW8)	cell-free assay	50%
Tyrosine-protein kinase ABL2 (ABL2, Homo sapiens, UniProt P42684)	cell-free assay	84%
Myosin light chain kinase 2, skeletal/cardiac muscle (MYLK2, Homo sapiens, UniProt Q9H1R3)	cell-free assay	88%
Protein-tyrosine kinase 2-beta (PTK2B, Homo sapiens, UniProt Q14289)	cell-free assay	100%
Bone morphogenetic protein receptor type-2 (BMPR2, Homo sapiens, UniProt Q13873)	cell-free assay	84%
Receptor-type tyrosine-protein kinase FLT3 (FLT3, Homo sapiens, UniProt P36888)	cell-free assay	64%
Serine/threonine-protein kinase Sgk2 (SGK2, Homo sapiens, UniProt Q9HBY8)	cell-free assay	99%
Dual specificity tyrosine-phosphorylation-regulated kinase 2 (DYRK2, Homo sapiens, UniProt Q92630)	cell-free assay	95%
Serine/threonine-protein kinase 32B (STK32B, Homo sapiens, UniProt Q9NY57)	cell-free assay	95%
Serine/threonine-protein kinase TAO1 (TAOK1, Homo sapiens, UniProt Q7L7X3)	cell-free assay	100%
Cyclin-dependent kinase 17 (CDK17, Homo sapiens, UniProt Q00537)	cell-free assay	100%
Mitogen-activated protein kinase kinase kinase kinase 2 (MAP4K2, Homo sapiens, UniProt Q12851)	cell-free assay	100%
Receptor-type tyrosine-protein kinase FLT3 (FLT3, Homo sapiens, UniProt P36888, D835Y)	binding	42%
Serine/threonine-protein kinase PLK3 (PLK3, Homo sapiens, UniProt Q9H4B4)	cell-free assay	84%
Serine/threonine-protein kinase D1 (PRKD1, Homo sapiens, UniProt Q15139)	cell-free assay	100%
Myosin-IIIa (MYO3A, Homo sapiens, UniProt Q8NEV4)	cell-free assay	100%

Block 3
Target: Calcium/calmodulin-dependent protein kinase type II subunit alpha (CAMK2A, Homo sapiens, UniProt Q9UQM7)
UniProt Q9UQM7, sequence (whole entry, looked up): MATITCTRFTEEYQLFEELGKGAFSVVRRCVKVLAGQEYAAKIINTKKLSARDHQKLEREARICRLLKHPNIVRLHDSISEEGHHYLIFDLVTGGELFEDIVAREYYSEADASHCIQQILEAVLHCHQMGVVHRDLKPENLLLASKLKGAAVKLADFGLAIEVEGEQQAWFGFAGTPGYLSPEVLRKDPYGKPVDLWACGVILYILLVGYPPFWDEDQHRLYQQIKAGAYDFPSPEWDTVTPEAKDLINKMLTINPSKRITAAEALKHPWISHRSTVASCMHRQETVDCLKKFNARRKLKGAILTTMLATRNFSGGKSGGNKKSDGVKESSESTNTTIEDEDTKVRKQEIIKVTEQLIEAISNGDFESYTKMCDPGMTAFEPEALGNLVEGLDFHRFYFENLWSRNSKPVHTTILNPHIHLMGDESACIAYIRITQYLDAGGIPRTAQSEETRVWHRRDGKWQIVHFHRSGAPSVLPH
Observed: enzyme activity
Mode: inhibitor
Concentration: 10 µM
SMILES	inhibition [%]
O=C(O)[C@H]1CCCCN1	-46
Cn1c[n+]([C@@H]2O[C@H](CO)[C@@H](O)[C@H]2O)c2nc(N)[nH]c(=O)c21	-26
N[C@@H]1CONC1=O	0
CC(=O)O[C@H]1CC[C@H]2[C@@H]3CCc4cc(O)ccc4[C@H]3CC[C@]12C	1
C[C@H](N)C(=O)N1CCC[C@H]1C(=O)NCC(=O)N1CCC[C@H]1C(=O)N[C@@H](CCCN=C(N)N)C(=O)O	-27
COc1cc(O)c(CC=C(C)C)c2c1C(=O)CC(c1ccc(O)cc1)O2 (stereo not shown)	-0.02
C[C@@H]1NC(=O)CNC1=O	6

Further values, each from its own experiment
SMILES	target	technique	measurement	value
C[C@@H]1CN(c2ccc(-c3cc(C(=O)NCCOCCOCCOCCOCCNC(=O)/C=C/c4[nH]cc(C(=O)N[C@@H](CC(N)=O)c5ccc(F)c(Cl)c5)c4-c4ccc(Cl)cc4F)ccc3F)cc2NC(=O)c2c[nH]c(=O)cc2C(F)(F)F)C[C@H](C)N1C	DDB1- and CUL4-associated factor 1 (DCAF1, Homo sapiens, UniProt Q9Y4B6)	SPR	association rate constant	198000 M⁻¹ s⁻¹

Repeated from above (block 2):
target	observed	remaining binding
Cyclin-dependent kinase 17 (CDK17, Homo sapiens, UniProt Q00537)	cell-free assay	100%
Dual specificity tyrosine-phosphorylation-regulated kinase 2 (DYRK2, Homo sapiens, UniProt Q92630)	cell-free assay	95%
Serine/threonine-protein kinase TAO1 (TAOK1, Homo sapiens, UniProt Q7L7X3)	cell-free assay	100%
Protein-tyrosine kinase 2-beta (PTK2B, Homo sapiens, UniProt Q14289)	cell-free assay	100%
